Experimental data from different studies.
Every numbered part comes from another study and shows a few of its results, in no order. Changes are numbered by the printed parent chain.

Sample 1
Target: Histone acetyltransferase KAT6A, winged helix 2, GST fusion (KAT6A, Homo sapiens, UniProt Q92794, residues 85-181)
Technique: protein binding microarray
Molecule type: double-stranded DNA, one strand shown
Medium: in vitro
Tested at: not given
Setting: 8-mer, flanks averaged, mean of 2 arrays, mostly near background
Baseline: not given
Reading: higher = stronger binding
Endpoint: E-score
Residues (chain): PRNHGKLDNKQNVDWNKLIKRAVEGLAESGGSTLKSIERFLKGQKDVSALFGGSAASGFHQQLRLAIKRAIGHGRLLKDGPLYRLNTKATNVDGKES
GCGACAAA: 0.0822
ATGAAGAG: -0.0186
CTATAAAC: 0.0389
CGACCTCC: 0.0344
AGCTATGA: -0.118
CTGCGATA: 0.135
GGCCATCA: -0.16
ATGGCCGC: 0.0479
AACGATCA: -0.0785
AGTGATTG: -0.0772

Sample 2
Target: ABI1, truncated, D143A, DHFR fusion (Arabidopsis thaliana)
Technique: DHFR PCA, deep sequencing
Medium: yeast
Setting: methotrexate growth selection, single substitutions
With: (+)-ABA 4.8 µM
Baseline: wild-type fitted maximum
Reading: higher = stronger binding
Endpoint: relative binding score
Starting sequence: PYL1, truncated, DHFR fusion (Arabidopsis thaliana); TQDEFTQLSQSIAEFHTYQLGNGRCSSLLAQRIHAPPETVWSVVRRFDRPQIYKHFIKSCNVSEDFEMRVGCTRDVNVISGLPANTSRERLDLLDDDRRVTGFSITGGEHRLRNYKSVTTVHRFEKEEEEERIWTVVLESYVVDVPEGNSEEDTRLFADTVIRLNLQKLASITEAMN
E129P: 85.5%
L112D: -10.1%
G108S: -2.25%
S171H: 79%
D96C: -0.109%
L91Q: -6.41%
G23W: 12.6%
R45P: -15.5%
G102F: -10.8%
S63H: 63.9%

Sample 3
Target: CCND3, cyclin fold, Cln2 fusion (human)
Technique: yeast growth competition, sequencing
Medium: yeast
Setting: weak parent motif
Baseline: not given
Reading: higher = stronger binding
Endpoint: normalised enrichment score
Starting sequence: RBL1 docking peptide (human); GSAKRRLFGEDPP
R5E: 0.0971
K4T: 0.156
D11S: 0.115
K4H: 0.0209
D11P: -0.011
A3Q: 0.132
L7F: 0.0871
G9H: 0.0993

Other studies, line by line
PhoQ, residues 284 288 289 292 302 303 DDMDFR  fold induction (PhoP, residues 12 14 15 18 19 NMSSL (Escherichia coli, UniProt P23836); Sort-seq, item: YFP reporter; E. coli; PhoQ-PhoP variant library, with: 10 µM Mg2+; baseline: high Mg2+ state, higher = stronger signaling): 1.37

Excerpt of the above (sample 3):
K4T: 0.156
A3Q: 0.132
